Results collected from several papers.
Several values in a cell are separate wells, animals, samples, runs or records. ± marks the error that the study gave.

| SMILES | test | test system | setting | how to read | quantity | value |
| --- | --- | --- | --- | --- | --- | --- |
| Cn1cc([C@H]2C[C@H]3CSC(N)=N[C@@]3(c3ccc(F)cc3F)CO2)cn1 | item: Aβx-40 | wild-type mouse, brain | subcutaneous, 10 mg/kg, 18 h | – | brain Aβ40 level | 2.58 ng/g |
| Cc1nn(-c2nc3c(F)cc(F)cc3s2)c(O)c1C(c1ccc(C(F)(F)F)cc1)c1c(C)nn(-c2nc3c(F)cc(F)cc3s2)c1O | – | mouse, cerulein-induced acute pancreatitis | 25 mg/kg | – | pancreas weight | 0.203 g and 0.133 g and 0.164 g and 0.216 g and 0.184 g |
| N#Cc1ccn2c(-c3ccncc3)c(-c3ccc(F)cc3)nc2c1 | kinase binding, competitor, MIB/MS competition, item: CEK1 | Candida albicans cell lysate | 100 nM | reference: DMSO | log2 fold change | 0.147 |
| CC1(C)CCC(c2ccc(Cl)cc2)=C(CN2CCN(c3ccc(C(=O)NS(=O)(=O)c4ccc(N[C@H](CCN5CCOCC5)CSc5ccccc5)c(S(=O)(=O)C(F)(F)F)c4)cc3)CC2)C1 | cell killing | canine lymph node CD21+ B cells, dog 33 | 24 h | – | EC50 | 228 nM |
| COc1cc2nccc(Oc3ccc(NC(=O)NC4CC4)c(Cl)c3)c2cc1C(N)=O | item: Ang-2 | human, serum | PK/PD model, point estimate | – | Hill coefficient | 4.27 |
| CCN(Cc1nc2c(N)nc3cc(-c4cc[nH]n4)ccc3c2[nH]1)C(C)=O | immunohistochemistry, item: cytotoxic T cells | patients with advanced solid tumours, non-injected tumour lesions | dose not given, monotherapy | reference: baseline | mean fold change | 1 |
| CC(C)n1c(C2CCNCC2)nc2c([N+](=O)[O-])c(Br)c(Br)cc21 | – | patients with AML, bone marrow | all dose levels | – | maximum blast reduction | -100% |
| C[C@H](Oc1ccc(Br)cc1-c1ccon1)C(=O)O | response peak | human, tibialis anterior muscle | 400 mg, 30 Hz+30 s | – | difference from placebo | 11.7% |
| C[C@H]1C[C@H]2CSC(N)=N[C@@]2(c2nc(NC(=O)c3ccc(OC(F)F)cn3)cs2)CO1 | item: Aβ1-40 | healthy adults, plasma | 125 mg once daily, day 14 | reference: placebo | percent change from baseline | -87.5% |
| CCCCC1(CCCC)CN(c2ccccc2)c2cc(SC)c(OCC(=O)N[C@@H](C(=O)NCC(=O)O)c3ccccc3)cc2S(=O)(=O)C1 | item: 7α-hydroxy-4-cholesten-3-one | human, plasma | 20 mg once daily, day 1 | – | plasma C4 | 13.9 ng/mL |
| N#Cc1ccc2c(-c3ccncc3)c(-c3ccc(F)cc3)nn2c1 | kinase binding, competitor, MIB/MS competition, item: HSL1 | Candida albicans cell lysate | 1 µM | reference: DMSO | log2 fold change | 0.0853 |
| CC(C)[C@H](C(=O)Nc1ccc(C(=O)NO)cc1)c1ccccc1 | volumetric MRI | human, right C1 intradural meningioma | dose not given, day 64 | reference: baseline | tumour volume change | 26% |
| COc1ccc(-c2cncc(N[C@@H](C)c3cccc(NC(=O)c4cncc(C)c4)c3)n2)cc1OC | item: rno-miR-192-5p | rat SU5416/hypoxia model, lung | dose not given | reference: SU5416/hypoxia vehicle | fold change | 1.71 |
| CN[C@@H]1COc2c(S(=O)(=O)NC(=O)Nc3c4c(cc5c3CCC5)CCC4)cnn2C1 | item: IL-1β | human participants, whole blood ex vivo | 900 mg single dose, 8 h, together with: LPS/ATP | reference: baseline | inhibition | 99.4% |
| C[C@@H]1CCC[C@H](n2cnc(-c3cc(Cl)ccc3-n3cc(Cl)nn3)cc2=O)c2cc(ccn2)-c2c(cnn2C(F)F)NC1=O | – | dog plasma | IC1.5× aPTT, STA-PTT reagent | – | concentration for aPTT prolongation | 610 nM |
| COc1cc2cc(-c3ccc(CC(=O)Nc4cc(C(C)(C)C(F)(F)F)no4)cn3)cnc2cc1OC | RECIST v1.1 | human RET-altered solid tumours | dose not given, phase I parts A and B | – | best overall response CR | 0% |
| OC(CCN1CCCCC1)(c1ccccc1)C1CC2C=CC1C2 (stereo not shown) | resting-state EEG | healthy elderly humans | oral, 2 mg, eyes open, LS mean | reference: baseline | Change in alpha power, EEG, Fz/Cz | 30.4% |
| O=C(O)CCC(=O)O.[2H]C([2H])([2H])Oc1cc(C)c2[nH]ccc2c1CN1CC[C@@H](C2CC2)C[C@H]1c1ccc(C(=O)O)cc1 | alternative complement pathway activity, Wieslab ELISA | healthy humans, nearly all subjects, serum | 200 mg once daily, trough, multiple doses | – | inhibition | > 80% |
| N#Cc1ccc2c(c1)[C@H]1CCCN(C(=O)c3ccc4[nH]cnc4c3)[C@H]1C2 | – | human, Phase II trial | 240 mg once daily, day 28, adjusted mean | reference: baseline | HOMA-IR change | 1.2 mmol/L × mU/L |
| O=C1Nc2cc3[nH]nc(-c4ccncc4)c3cc2CN1Cc1ccccc1 | RECIST v1.1 | human, relapsed or refractory advanced solid tumours | intravenous, 3.6 mg/kg | – | partial response, best response | 0% |
| O=C(OC(C(F)(F)F)C(F)(F)F)N1CCN(Cc2cccc(Oc3ccccc3)c2)CC1 | PET blocking study | rhesus monkey, brain Pons | 0.1 mg/kg, compound pretreatment, together with: [18F]T-401 tracer | – | k3 | 4 min⁻¹ |
| Cc1n[nH]c2ccc(-c3cc(OC[C@@H](N)Cc4ccccc4)cnc3-c3ccoc3)cc12 | kinase binding, competitor, MIB/MS competition, item: PKH2 | Candida albicans cell lysate | 10 µM | reference: DMSO | log2 fold change | -0.756 |
| CO[C@H]1CC[C@H](N2C(=O)CNc3ncc(-c4ccc(C(C)(C)O)nc4)nc32)CC1 | flow cytometry | stimulated B cells, human, blood | 45 mg single dose, 24 h, mean | reference: baseline | pS6RP change from baseline | -30% |

| SMILES | test | test system | setting | how to read | quantity | value |
| --- | --- | --- | --- | --- | --- | --- |
| C[C@]12CC[C@@H]3c4ccc(O)cc4CC[C@H]3[C@@H]1CC[C@@H]2O | RT-qPCR, item: CO | Arabidopsis thaliana ING1:FLAG seedlings | 20 µM, 6 h after treatment, sampled at ZT12, replicate rep3, unit not given | reference: TUB2 | mRNA level | 0.0771 |
| O=C1c2ccncc2C(=O)c2c1[nH]c1ccccc21 | decreased | rat, female, monocrotaline PAH model, lung | intravenous, 1 mg/kg every 48 h, days 17-27 | reference: monocrotaline plus saline | medial thickness of small pulmonary arteries | decreased |
| COc1ncc(-c2nc3c(n2C(C)C)[C@H](c2ccc(Cl)cc2)N(c2cc(Cl)cn(C)c2=O)C3=O)c(OC)n1 | International Working Group criteria | human acute myeloid leukemia patients | oral, 150 mg, response TF, high-dose, other doses | – | best overall response | 83.3% |
| COc1ccc(C2=N[C@@H](c3ccc(Cl)cc3)[C@@H](c3ccc(Cl)cc3)N2C(=O)N2CCNC(=O)C2)c(OC(C)C)c1 | histology | Dmd C3333Y mice, quadriceps | dose not given | – | necrotic area | 16.2% and 23.7% and 20.3% and 18.5% and 22.4% |
| COc1ccc2c(c1)CC[C@@H]1[C@@H]2CC[C@]2(C)[C@@H](NCCCCCCN3C(=O)C=CC3=O)CC[C@@H]12 | open field test | humanized UT (+/h+) mice, SAH model | dose not given | – | distance travelled | 25 m |
| C=CCn1c(=O)c2cnc(Nc3ccc(N4CCN(C)CC4)cc3)nc2n1-c1ccc2c(n1)[C@@](O)(CC)CC2 | – | HT-29 xenograft, BALB/c nude mice | oral, 60 mg/kg once daily x 22, day 21 | reference: vehicle | tumour growth inhibition | 15% |
| COc1ccc(C[C@@H]2c3cc(OC)c(OC)cc3CC[N@+]2(C)CCC(=O)OCCCCCOC(=O)CC[N@@+]2(C)CCc3cc(OC)c(OC)cc3[C@H]2Cc2ccc(OC)c(OC)c2)cc1OC | – | rat, isolated soleus nerve-muscle preparation | 1 µM, unit not given | reference: control | nerve-stimulated isometric force | 5.9 and 8.4 and 6.3 |
| CC(C)NCC(O)c1ccc(O)c(O)c1 (stereo not shown) | – | ventricular cardiomyocytes, C57BL/6 mouse | dose not given, 0.444 s | – | sarcomere length | 1.71 µm |
| c1ccc(-c2n[nH]cc2-c2ccnc3ccccc23)nc1 | kinase binding, competitor, MIB/MS competition, item: HRK1 | Candida albicans cell lysate | 1 µM | reference: DMSO | log2 fold change | 1.32 |
| Nc1ncnc2c1ncn2[C@H]1C[C@@H]2OP(=O)(O)OC[C@H]3O[C@@H](n4cnc5c(N)ncnc54)C[C@@H]3OP(=O)(O)OC[C@H]2O1 | – | BALB/c mouse CT26 tumour | iv, 1 mg/kg days 9,12,15 | – | complete response rate | 30% |
| CC(=O)Oc1cc2c(s1)CCN(C(C(=O)C1CC1)c1ccccc1F)C2 (stereo not shown) | light transmittance aggregometry | human patients, platelet-rich plasma | dose not given, 30 min, together with: ADP 20 µM | reference: patients | patients with IPA above 90% | 0% |
| CCCCCN1C[C@H](O)[C@@H](O)[C@H](O)[C@@H]1CO | mRNA sequencing | mouse Hexb-/-, hippocampus | 30 mg/kg/day | reference: untreated Hexb-/- mice | number of significantly changed genes | 1 genes |
| O=S(=O)(NCCNC/C=C/c1ccc(Br)cc1)c1cccc2cnccc12 | – | mouse zygotes | 20 µM, 72 h post-hCG | – | embryos reaching 4-cell | 60% and 52.9% |
| O=C(O)CNC(=O)Cc1ccccc1 | – | ventricular cardiomyocytes, C57BL/6 mouse | dose not given, 0.128 s | – | sarcomere length | 1.7 µm |
| COc1ccccc1[C@H](Cn1c(=O)n(C(C)(C)C(=O)O)c(=O)c2c(C)c(-c3ncco3)sc21)OC1CCOCC1 | [1-13C]acetate infusion, isotopomer analysis | overweight or obese healthy men, plasma VLDL-TG palmitate | oral, 200 mg single dose, 6 h post-dose, together with: oral fructose | – | fractional hepatic DNL | 5.05 % new palmitate |
| NC(=O)c1cnc2[nH]ccc2c1N[C@@H]1[C@@H]2CC3C[C@H]1C[C@@](O)(C3)C2 | CD4+ naive T cells, flow cytometry | Japanese humans, peripheral blood | 20 mg single dose | reference: baseline | percent change | 0.73% |
| C[C@@H](O)CCOC(=O)C[C@@H](C)O | – | human | oral drink, dose not given, 240 min post dose, median, all participants | – | plasma insulin | 445 pg/mL |
| O=C1CCc2ccc(OCCCCN3CCN(c4cccc(Cl)c4Cl)CC3)cc2N1 | item: stopping or switching | patients CYP2D6 extreme phenotypes | dose not given, 3 months | reference: IM versus NM | hazard ratio | 2.49 |
| CC#Cc1cncc(-c2ccc3c(c2)[C@@]2(N=C(C)C(N)=N2)[C@]2(CC[C@H](OC)CC2)C3)c1 | item: Aβ40 | Dunkin-Hartley guinea pigs, CSF | oral, dose not given, 8 h | – | maximum reduction | 88% |
| Cc1sc2c(c1C)C(c1ccc(Cl)cc1)=N[C@@H](CC(=O)NCCCCCCCCNC(=O)COc1cccc3c1C(=O)N(C1CCC(=O)NC1=O)C3=O)c1nnc(C)n1-2 (stereo partly shown) | flow cytometry | 4T1 tumour-bearing mice, spleen | dose not given | – | CD8+ T cells | 6.8% and 10.5% |
| Cn1cc(Nc2nccc(-c3ccc4c(c3)CN(C3COC3)CC[C@H]4NC(=O)c3cn(C(C)(C)C)nn3)n2)cn1 | item: LPS/IL-1 inhibition of RXR | splenic B cells, mice | 30 mg/kg, IgD-activated in vivo | reference: vehicle, direction not given | pathway activation z-score | -1.07 |
| CC(C)(O)c1cn(-c2ccc(-c3cccc(S(C)(=O)=O)c3)cc2)c(C(C)(C)c2ccccc2Cl)n1 | gene induction, agonist, item: ABCG1 | Macaca fascicularis, whole blood | – | reference: pan agonist B | Emax | 41% |
| N=C(N)NCCC[C@H](NC(=O)[C@H](CCCNC(=N)N)NC(=O)[C@H](CCCCN)NC(=O)[C@H](CCC(N)=O)NC(=O)[C@H](CCCCN)NC(=O)[C@H](Cc1ccc(O)cc1)NC(=O)[C@@H](N)CCCCN)C(=O)N[C@@H](CO)C(=O)N[C@@H](Cc1ccc(O)cc1)C(=O)N[C@@H](CCCCN)C(=O)O | – | dentin hypersensitivity patients | 5 µg/tooth single, day 22, unit not given | reference: baseline | tactile threshold change | -1 ± 0.89 |

For quick reference, copied from above:
| SMILES | test | test system | setting | how to read | quantity | value |
| --- | --- | --- | --- | --- | --- | --- |
| CC(C)NCC(O)c1ccc(O)c(O)c1 (stereo not shown) | – | ventricular cardiomyocytes, C57BL/6 mouse | dose not given, 0.444 s | – | sarcomere length | 1.71 µm |
| c1ccc(-c2n[nH]cc2-c2ccnc3ccccc23)nc1 | kinase binding, competitor, MIB/MS competition, item: HRK1 | Candida albicans cell lysate | 1 µM | reference: DMSO | log2 fold change | 1.32 |
| Nc1ncnc2c1ncn2[C@H]1C[C@@H]2OP(=O)(O)OC[C@H]3O[C@@H](n4cnc5c(N)ncnc54)C[C@@H]3OP(=O)(O)OC[C@H]2O1 | – | BALB/c mouse CT26 tumour | iv, 1 mg/kg days 9,12,15 | – | complete response rate | 30% |
| CC(=O)Oc1cc2c(s1)CCN(C(C(=O)C1CC1)c1ccccc1F)C2 (stereo not shown) | light transmittance aggregometry | human patients, platelet-rich plasma | dose not given, 30 min, together with: ADP 20 µM | reference: patients | patients with IPA above 90% | 0% |
| CCCCCN1C[C@H](O)[C@@H](O)[C@H](O)[C@@H]1CO | mRNA sequencing | mouse Hexb-/-, hippocampus | 30 mg/kg/day | reference: untreated Hexb-/- mice | number of significantly changed genes | 1 genes |
